Assay results of several laboratories.
Each numbered part is a random draw from the data of one study; scales do not carry over between parts. Changes are numbered by the printed parent chain.

Block 1
Target: RNA binding protein fox-1 homolog 2, RRM domain, GST-SBP tag (RBFOX2, Homo sapiens, UniProt O43251-10, residues 100-194)
Technique: RNA Bind-n-Seq
Form: RNA
Matrix: in vitro
Tested at: 365 nM
Setting: natural RNA segment, single round, ends assumed
Relative to: no-protein control
Direction: higher = stronger binding
All sequences stand within: GGGAGUUCUACAGUCCGACGAUC … UGGAAUUCUCGGGUGCCAA
Construct (chain): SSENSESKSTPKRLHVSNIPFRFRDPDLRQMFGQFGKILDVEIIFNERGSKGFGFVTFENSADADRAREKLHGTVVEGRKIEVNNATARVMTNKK
Sequence	RBNS enrichment (R)
AGAUCCAUCCCACACCCAGACAGAACCUUUCCCUUGGGAGCAGCACAGGGGUCCCACAUUCUUGUGUAGUUUGCACAGGUACAUGUGCAGUUUCCUGAAGGAUGGAGGGA	0.375
UUUAACACAAGGGCCCUCCUUGUCAUUGACCUUAGCUAAACCAUGGCAAUUCAUAAAUAGAGGAAACAUUAAUGAAUUAAAAGCAUUCCUUAUUUUUUAACUAAUAUUUG	0.435
GAAUCGCAUGUAGUAGAGCUGAAAGAAUUAAAGACCCGGCUUACAGCUUCAGAUGAAGCUUUAAGCUGCAGUGUUGUGAAGUGAUUAAUUCCCUUUCUACCAACCCCGUG	4.68
AAAAACAGUCUCCAUCUCCUCAAAAUAGUUGCUGACUCCCUGCACCCAAGGGGCCUCUCCAUGCCUUCUUAGGAAGCAGCUAUGAAUCCAUUGUCCUUGUAGUUUCUUCC	0.37
GGGAUUUAGUGCCCUGUCUCCCUGUCUCUAGAAGCCUUAGCCUGGGCACCUGGCUCAAUCUUGUAACUGCCUGCUAGCCAUAGAUUCCUUUCAGCCUUGCUGACUUCUCC	1.25
GGGUUUGACCAGGUUAGGACUAUUCUUUCUGUGAAGGAUUGUUUGAUUGUAGUAACUCUAUUGGCAUCUUGUAAAUUGGCUCAUUUCCUACGUGAUGUACAUAGAAUAUU	0.518
AAUACUGAAUUCAGUUAUCUCACCUGACUGCUUUCCUGCCCUCAGACCUGGACACUGGGCCUCAGCCCCUGGCCGUGUGGAAUCCAUGGGAUCCUCGGGACUCCCCAGAC	0.25
GCUUCUAUAAUGAGGCACAUAUUAAUACAGUUUUUAUAUGGUAUCUAUGAAAGAGUUCACUUCAUAGAGAAUAAUACUUGAGCAAAUGUAUCCAAGAAAGCAAGCAAAUG	0.474
UGAGCCAUGAAAAAAGUAAUGAACUUGUGCUGUUAAUCGUCACUGUAAUGAGAAGUCUUACGUACAACAUAGCUGUGGUGGCUUAAUGGCUGCAUUAGAUAGGAUCCUCA	0.371
CUGUACUAGUUACUAUGAAAAUGGAAAUAAUUAUCUUAGAAUAUUUUCAAAGUAGAGCGUGAGCAUGUAUUUUUAGUGGGAGAGCUCUGAUAGUUGUUGGGAAUAUAUAA	1.99
CAAUUAUUGAAUUGAUACCUGUUUCUAGCAAAUAUAUGACAUGGCCUAGUGUCUUAAUUUUUGUCCCACUCCGUCAGUAAUUUGAAAAGUUGCCUUUAAAUCUUUUUAUU	0.49
ACAAUGACUAGCUGUUGCUCUCCAAGCUAAGGGACCAUUCCCUGUCUUAUGCAUAUACGUAAUGUCACCUAUUUAGGUAUCAUCCUAUUUGAGAGUUUGAGGAACUGAAA	0.993

Block 2
Target: Sal-like protein 4, full length isoform B (SALL4, Homo sapiens, UniProt Q9UJQ4-2, residues 1-616)
Technique: universal PBM
Form: double-stranded DNA, one strand shown
Matrix: in vitro
Tested at: not given
Setting: 8-mer, flanks averaged, mean of replicates
Direction: higher = stronger binding
Construct (chain): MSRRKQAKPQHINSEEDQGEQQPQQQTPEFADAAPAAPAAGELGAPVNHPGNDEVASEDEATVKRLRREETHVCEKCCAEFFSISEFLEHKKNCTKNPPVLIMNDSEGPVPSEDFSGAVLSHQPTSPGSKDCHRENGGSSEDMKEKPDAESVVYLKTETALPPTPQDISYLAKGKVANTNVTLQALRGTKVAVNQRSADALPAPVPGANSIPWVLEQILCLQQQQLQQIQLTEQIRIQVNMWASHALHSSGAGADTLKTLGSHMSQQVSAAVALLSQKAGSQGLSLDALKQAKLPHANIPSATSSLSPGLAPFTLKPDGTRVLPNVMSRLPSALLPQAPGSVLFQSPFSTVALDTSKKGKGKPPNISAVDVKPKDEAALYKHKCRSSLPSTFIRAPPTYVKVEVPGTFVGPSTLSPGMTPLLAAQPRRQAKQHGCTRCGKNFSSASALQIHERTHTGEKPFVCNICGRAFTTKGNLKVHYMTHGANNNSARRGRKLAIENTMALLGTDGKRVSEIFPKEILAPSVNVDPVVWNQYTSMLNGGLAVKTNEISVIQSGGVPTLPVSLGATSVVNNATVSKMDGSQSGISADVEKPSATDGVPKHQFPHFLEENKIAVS
Sequence	E-score
CGTTCCGA	-0.208
TGCCGACA	-0.144
CCGCGCTA	-0.158
ATGCGGCC	-0.152
CGAGTCAG	-0.147
AAACATCG	-0.18
GGCTTCCA	-0.237
TAAACTCA	0.131
CTATAGAG	0.0866
GATTAACA	0.207
AGTTCGAA	0.0262
AAATTGCC	0.193
CGTGCCAA	-0.261
GGGCCATA	-0.0392
ACCATCCC	-0.0631
AGGATTGA	0.152
GCTCATAC	0.0681
AGAGATAG	0.113
TCCGGGAA	-0.141
CGCGACCA	-0.267
GAGTAACA	0.0846
AACTTCAC	0.121
TCGTAGCA	0.0965
TCAAATAA	0.317
ACGCACGG	-0.224

Block 3
Target: Prothrombin, mature alpha-thrombin (F2, Homo sapiens, UniProt P00734)
Technique: aptamer microarray, sandwich
Form: DNA with 2'F-ANA
Matrix: in vitro
Tested at: 200 nM
Setting: whole 15-mer aptamer, many near background
Added: Cy3 exosite-II aptamer, 400 nM
Direction: higher = stronger binding
Sequence: GGTTGGTGTGGTTGG
Modification	mean fluorescence intensity
2'F-ANA at 1 3 7 10 14 15	57.9 a.u.
2'F-ANA at 1 2 4 6 7 8 9 10 11 14 15	48.5 a.u.
2'F-ANA at 1 5 6 9 15	62.5 a.u.
2'F-ANA at 2 3 4 6 7 8 10 12 13	222 a.u.
2'F-ANA at 1 4 9 10 14	170 a.u.
2'F-ANA at 6 7 8 10 11 12 13 14	101 a.u.
2'F-ANA at 4 14 15	163 a.u.
2'F-ANA at 4 5 6 8 14	47.8 a.u.
2'F-ANA at 1 2 3 5 6 7 10 12 14	47.5 a.u.
2'F-ANA at 4 8 9 11 12	436 a.u.
2'F-ANA at 1 2 5 7 10 11	65.6 a.u.
2'F-ANA at 1 2 3 6 7 8 9 10 11 12 13 14 15	57 a.u.
2'F-ANA at 1 2 3 4 6 7 10 11 12 15	66.9 a.u.
2'F-ANA at 2 4 5 6 7 8 12	245 a.u.
2'F-ANA at 1 3 4 5 6 7 9 10 11 15	52.4 a.u.
2'F-ANA at 1 5 6 7 8 9 10 11 12 14 15	68 a.u.
2'F-ANA at 1 2 3 4 5 6 7 10 13 14	49 a.u.
2'F-ANA at 1 2 3 4 5 6 7 8 10 14 15	57.1 a.u.
2'F-ANA at 3 4 11 12 14	404 a.u.
2'F-ANA at 1 2 3 5 8 11 13 14 15	49.4 a.u.
2'F-ANA at 6 7 9 15	443 a.u.
2'F-ANA at 1 4 5 7 8 9 10 13 14 15	48 a.u.
2'F-ANA at 1 2 3 4 5 12 14	48.1 a.u.
2'F-ANA at 2 4 8 10 11 15	103 a.u.
2'F-ANA at 4 7 11 12 13 15	356 a.u.

Block 4
Target: ABI1, truncated, D143A, DHFR fusion (Arabidopsis thaliana)
Technique: DHFR PCA, deep sequencing
Matrix: yeast
Setting: methotrexate growth selection, single substitutions
Added: (+)-ABA 0.032 µM
Relative to: wild-type fitted maximum
Direction: higher = stronger binding
Starting sequence: PYL1, truncated, DHFR fusion (Arabidopsis thaliana); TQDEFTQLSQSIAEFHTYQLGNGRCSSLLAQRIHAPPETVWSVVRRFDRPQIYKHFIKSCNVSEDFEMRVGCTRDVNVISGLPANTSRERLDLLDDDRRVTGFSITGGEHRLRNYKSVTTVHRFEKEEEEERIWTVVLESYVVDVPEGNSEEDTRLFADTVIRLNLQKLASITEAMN
Variant	relative binding score [%]
V76K	6.49
N177F	42.8
S26K	-4.81
C60P	-1.31
V78K	1.05
C25Q	0.582
R98L	15
Q7K	25.9
F103I	-1.36
A84D	23.3
V100C	6.44
L164K	1.63
R99L	54.4
L169C	-0.611
A158P	-6.23
G108N	-3.67
F157A	1.59

Block 5
Target: CCND3, cyclin fold, Cln2 fusion (human)
Technique: yeast growth competition, sequencing
Matrix: yeast
Setting: weak parent motif
Relative to: not given
Direction: higher = stronger binding
Starting sequence: PKN2 docking peptide (human); VSAVQKLDFSDTM; partner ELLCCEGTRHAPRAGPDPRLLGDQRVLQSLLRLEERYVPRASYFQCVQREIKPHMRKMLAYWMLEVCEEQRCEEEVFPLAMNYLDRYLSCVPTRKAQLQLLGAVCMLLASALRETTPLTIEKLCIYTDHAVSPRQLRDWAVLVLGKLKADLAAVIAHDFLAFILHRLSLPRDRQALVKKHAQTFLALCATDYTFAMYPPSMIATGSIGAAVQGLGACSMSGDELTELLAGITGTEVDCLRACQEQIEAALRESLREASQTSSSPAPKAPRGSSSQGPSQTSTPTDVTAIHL
Variant	normalised enrichment score
VSATQKLDFSDTM [V4T]	0.0678
VSAVQKLDRSDTM [F9R]	0.177
VSAVQKLDCSDTM [F9C]	0.0714
VSMVQKLDFSDTM [A3M]	0.0859
VSAVQKIDFSDTM [L7I]	0.0328
VSAVQKLDGSDTM [F9G]	0.14
VPAVQKLDFSDTM [S2P]	0.0793
VSAVQKLDISDTM [F9I]	0.113
VSAVQKLDFSDLM [T12L]	0.179
VSAVQKLDFSDTS [M13S]	0.13
VSAVQKLDFPDTM [S10P]	0.163
VSAVQKLDFSRTM [D11R]	0.118
VSAVQKLDFSDTC [M13C]	0.156
VSKVQKLDFSDTM [A3K]	0.0246
VSSVQKLDFSDTM [A3S]	0.128
VSAVQKLQFSDTM [D8Q]	0.148
VSAVQKLDFVDTM [S10V]	0.154
VSAVQKPDFSDTM [L7P]	0.0866

Block 6
Target: BATF, bZIP domain (human)
Technique: DHFR protein complementation
Matrix: yeast
Setting: single substitutions, most at no-binding floor
Relative to: wild-type JUN-FOS pair
Direction: higher = stronger binding
Starting sequence: JUN, bZIP domain (human); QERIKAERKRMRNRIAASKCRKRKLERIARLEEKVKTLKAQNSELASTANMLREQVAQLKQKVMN; partner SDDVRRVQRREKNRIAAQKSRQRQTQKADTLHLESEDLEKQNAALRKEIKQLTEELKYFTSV
Variant	binding fitness [natural log]
L31H	-0.157
T37C	0.0149
A57W	-0.0894
A40Y	-0.159
A57N	0.0103
A46D	-0.434
A40G	-0.112
A46E	0.0343
R53D	-1.09
K39Q	-0.155
S47V	0.1
A49T	-0.316
L59P	-0.909
T48D	-0.202
A29H	-0.0171
A49D	-1.36
L45R	-1.18
K34E	-0.161
